Assay results from different studies.
Each line is one published result; not all experiments were run side by side. Several values in a cell are separate wells, animals, samples, runs or records. ± gives the spread as reported. In brackets after ≈: the same amount, converted by molar mass.
UCHL1: Ubiquitin carboxyl-terminal hydrolase isozyme L1 (UCHL1, Homo sapiens, UniProt P09936)
UniProt P09936, sequence (whole entry, looked up): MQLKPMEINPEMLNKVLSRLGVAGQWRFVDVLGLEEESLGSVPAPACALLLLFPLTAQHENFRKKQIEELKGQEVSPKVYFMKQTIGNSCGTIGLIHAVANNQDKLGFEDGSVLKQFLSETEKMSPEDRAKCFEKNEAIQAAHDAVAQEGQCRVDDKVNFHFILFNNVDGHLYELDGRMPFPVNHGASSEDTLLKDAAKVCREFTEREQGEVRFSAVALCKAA

Compound | target or system | assay | test system | setting | scale | measurement | result
NCCCC[C@H](NC(=O)[C@H](Cc1ccccc1)NC(=O)[C@H](CCC(N)=O)NC(=O)[C@H](Cc1ccccc1)NC(=O)[C@H](CCC(N)=O)NC(=O)[C@@H](N)Cc1ccccc1)C(N)=O | Pseudomonas aeruginosa | – | – | – | – | MBC | 2080 µM (≈ 1750 µg/mL)
C[C@@H](O)[C@H]1C(=O)N2C(C(=O)O)=C(SCCN=CN)C[C@H]12 | Pseudomonas aeruginosa | – | BAA-2797, mouse, peritonitis model, kidney | intraperitoneal, 10 mg/kg single dose | – | bacterial load | 6.86 log10 CFU and 6.6 log10 CFU and 6.64 log10 CFU and 7.08 log10 CFU and 6.9 log10 CFU and 7.05 log10 CFU
COc1ccccc1C(=O)C#Cc1ccc(F)c(F)c1 | Pseudomonas aeruginosa | biofilm formation | PA14 | static | – | IC50 | 33 µM
N=C(N)c1cccc(OCc2ccc(COc3cccc(C(=N)N)c3)cc2)c1 | Pseudomonas aeruginosa | – | ATCC 27853 | concentration not given, with: rifampicin | – | MIC in combination | 100 µg/mL
COC(=O)[C@H](Cc1ccccc1)NC(=O)C1COC2(CCCCC2)OC1 | Pseudomonas aeruginosa | crystal violet staining | – | 500 µg/mL, 24 h | baseline: untreated | residual biofilm | 39 ± 11%
CNC(C)C1CCC(N)C(OC2C(N)CC(N)C(OC3OCC(C)(O)C(NC)C3O)C2O)O1 (centres unmarked) | Pseudomonas aeruginosa | broth microdilution, absorbance | clinical isolate P.A19, RPMI with 1640% FBS | 24 h, 37 °C | – | MIC | 32 µM (≈ 15.3 µg/mL)
COc1cccc(C(O)C#Cc2ccc(O)c(OC)c2)c1 (centres unmarked) | Pseudomonas aeruginosa | static biofilm | PA14 | 10 µM, 24 h, static | baseline: DMSO | biofilm formation | 62%
COc1ccc2ccccc2c1-c1cc(CNC(=O)C(C)Cl)on1 (centres unmarked) | UCHL1 | covalent, intact protein LC-MS | – | 12.5 µM | – | labelling | 12.8%
COc1cc(C#CC(O)CC(C)C)ccc1O (centres unmarked) | Pseudomonas aeruginosa | static biofilm | PA14 | 10 µM, 24 h, static | baseline: DMSO | biofilm formation | 75%
N=C(N)c1ccc(OCc2ccccc2COc2ccc(C(=N)N)cc2)cc1 | Pseudomonas aeruginosa | – | ATCC 27853 | concentration not given, with: rifampicin | – | MIC in combination | 100 µg/mL
CCCCC[C@H](O)CC(=O)CCc1ccc(O)c(OC)c1 | Pseudomonas aeruginosa | biofilm formation | PA14 | static | – | IC50 | 46 µM
C[C@@H](O)[C@H]1C(=O)N2C(C(=O)O)=C(S[C@@H]3CN[C@H](C(=O)Nc4cccc(C(=O)O)c4)C3)[C@H](C)[C@H]12 | Pseudomonas aeruginosa | checkerboard | carbapenem-resistant | concentration not given, with: anionic gold nanoparticle 8 µg/mL | baseline: MIC alone over combination | MIC fold reduction | 32 fold
N=C(N)c1ccc(OCCCCCOc2ccc(C(=N)N)cc2)cc1 | Pseudomonas aeruginosa | – | – | 50 µM | baseline: untreated | growth | 99%
NC[C@H]1O[C@H](O[C@H]2[C@H](O)[C@@H](O[C@H]3O[C@H](CO)[C@@H](O)[C@H](N)[C@H]3O)[C@H](N)C[C@@H]2N)[C@H](O)[C@@H](O)[C@@H]1O | Pseudomonas aeruginosa | – | – | concentration not given, 0.2 mg/mL | – | growth inhibition | 86%
Cn1nc(-c2ccccc2)cc1C1COC2(CCCCC2)O1 (centres unmarked) | Pseudomonas aeruginosa | crystal violet staining | – | 500 µg/mL, 24 h | baseline: untreated | residual biofilm | 61 ± 9%
N=C(N)c1ccc(OCc2cc(COc3ccc(C(=N)N)cc3)cc(-c3ccccc3)c2)cc1 | Pseudomonas aeruginosa | checkerboard | ATCC 27853 | unit not given, with: rifampicin | lower = stronger synergy | FICI | 0.5
O=C(NCCc1ccccc1)C1COC2(CCCCC2)OC1 | Pseudomonas aeruginosa | crystal violet staining | – | 500 µg/mL, 24 h | baseline: untreated | residual biofilm | 18 ± 4%
CC[C@H](C)CCCCC(=O)N[C@@H](CCN)C(=O)N[C@H](C(=O)N[C@@H](CCN)C(=O)N[C@H]1CCNC(=O)[C@H]([C@@H](C)O)NC(=O)[C@H](CCN)NC(=O)[C@H](CCN)NC(=O)[C@H](CC(C)C)NC(=O)[C@@H](CC(C)C)NC(=O)[C@H](CCN)NC1=O)[C@@H](C)O | Pseudomonas aeruginosa | broth microdilution | ATCC 27736, cation-adjusted Mueller-Hinton broth | – | – | MIC | 0.214 µM (≈ 0.25 µg/mL)
COc1cc(-c2[nH]nnc2C(=O)c2ccccc2)ccc1O | Pseudomonas aeruginosa | static biofilm | PA14 | 10 µM, 24 h, static | baseline: DMSO | biofilm formation | 70%
CC(=O)N1[C@@H]2CC3C4CC=C5C[C@@H](O)CC[C@]5(C)C4CC[C@]3(C)[C@@]21C(C)=O (some centres unmarked) | UCHL1 | covalent, intact protein LC-MS | – | 12.5 µM | – | labelling | 15.2%

Repeated from above:
Compound | target or system | assay | test system | setting | scale | measurement | result
O=C(NCCc1ccccc1)C1COC2(CCCCC2)OC1 | Pseudomonas aeruginosa | crystal violet staining | – | 500 µg/mL, 24 h | baseline: untreated | residual biofilm | 18 ± 4%
CC[C@H](C)CCCCC(=O)N[C@@H](CCN)C(=O)N[C@H](C(=O)N[C@@H](CCN)C(=O)N[C@H]1CCNC(=O)[C@H]([C@@H](C)O)NC(=O)[C@H](CCN)NC(=O)[C@H](CCN)NC(=O)[C@H](CC(C)C)NC(=O)[C@@H](CC(C)C)NC(=O)[C@H](CCN)NC1=O)[C@@H](C)O | Pseudomonas aeruginosa | broth microdilution | ATCC 27736, cation-adjusted Mueller-Hinton broth | – | – | MIC | 0.214 µM (≈ 0.25 µg/mL)
